Published values of several laboratories.
Numbered parts are unrelated; each lists some results of a single study. Substitutions count along the parent as printed.

Study 1 — technique: RNA Bind-n-Seq; molecule type: RNA; matrix: in vitro; tested at: 100 nM; relative to: input RNA pool; reading: higher = stronger binding
Target: RING finger protein unkempt homolog, zinc fingers 1-6, SBP tag (UNK, Homo sapiens, UniProt Q9C0B0, residues 30-357)
UniProt Q9C0B0, sequence (30-357, looked up): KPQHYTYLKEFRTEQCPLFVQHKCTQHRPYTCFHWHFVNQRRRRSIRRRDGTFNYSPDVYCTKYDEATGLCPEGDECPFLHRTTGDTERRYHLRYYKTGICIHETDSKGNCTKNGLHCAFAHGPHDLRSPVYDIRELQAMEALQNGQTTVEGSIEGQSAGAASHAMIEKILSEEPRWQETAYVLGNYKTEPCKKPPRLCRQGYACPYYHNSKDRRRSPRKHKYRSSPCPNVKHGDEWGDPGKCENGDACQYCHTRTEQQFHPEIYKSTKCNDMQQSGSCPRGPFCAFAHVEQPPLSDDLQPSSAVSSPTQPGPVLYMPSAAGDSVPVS
Notes: RNA with constant flanks, vertebrate orthologous sites, ends assumed
| Sequence | bound/input enrichment [ratio] |
| --- | --- |
| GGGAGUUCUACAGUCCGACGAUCAACCUAAAAUUACAGCAAAAGAGCCAAGCAGUAGAAUUGUUUUUUUCAUAUAUGUAAAAAUAAUUACAUCCAGACUUUCCUUAUUCAAUUUUAAAAAUAAAAAAAUACCUCAGUGCUAUGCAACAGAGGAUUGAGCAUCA | 0.77 |
| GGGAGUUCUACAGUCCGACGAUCACGUAUUUAUACUGGCCAAACAUUUUUGACUUUGUAUUUCUUUGUCCUUUUUUGGUAGUUCUCGUUGUUACCCGCACCAUUUUUAUGUCUCCUUCACUGAAGGGCUAGAGUUUUAACUUUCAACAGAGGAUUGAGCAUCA | 0.551 |
| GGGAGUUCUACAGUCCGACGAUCAUUCAAACCUGUGGUGCCAUGGCCUCAUGUGGAAGGAGUAGAAGUGGACUUAGAGUCUAUUAGAAGAAAAAACAAGGCCAAAAAUGAACAGGAACACCAUGCUGGCGGAGAUUCCCAAAACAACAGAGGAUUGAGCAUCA | 0.411 |
| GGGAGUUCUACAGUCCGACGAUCAUAUUGGAUGUAGUGUAAAAUUAUCCAAGGCAGUGACUUCAGCUUCAUAUAUAUAUAAUAUAGUUAGUUUUAAAGCUAUUGACGUUUAUUUAAACUUUUAGAUGGGACUGUUUGCUAUUUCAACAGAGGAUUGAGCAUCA | 1.07 |
| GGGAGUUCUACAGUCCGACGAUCAAUAAUGAAUAGUAUUAAAGAAACAUUCUCGUCUUCCUUUACCUUUAAUCCCCUAAUACCUAGUCUACUUUUUAAAUUUUCAGACUUCACUGCUUUUUGAAUUCAUAAUUCUAAUUUUCACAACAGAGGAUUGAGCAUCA | 2.05 |
| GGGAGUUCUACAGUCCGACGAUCGACCUCCUGAACUUCUAACUUUCAAGCUGUGGCUGUUUUAGAUACUGGUUUUAUUUUCUUUACAAUUUUCCUGCCUUUCUUCCCCUGUUCCCAAGGUUUGACUCAUGGAUCUUACUCUUCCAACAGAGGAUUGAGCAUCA | 2.81 |
| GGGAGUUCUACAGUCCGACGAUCAAUAGUUUUAAGCUUGUUUGCACAGUUUUUUCUUUCCAUUGGAGAUGGAAUUCAUUGCCUUAGGUCUUUUUAAUAGUGUAUUGUUAUUGUUGGGCUGGCUCUAUGCUUGAAAACCAGUUUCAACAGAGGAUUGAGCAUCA | 2.07 |
| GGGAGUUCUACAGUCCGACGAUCAAGUUUACUUUAUGCCGUGGACUCCGUACCGAACUGACACGCUCAUCGAGUACUCCUCGCUCGACGACUUCCAGAACUCGCGGCAAACCACCACGUAUAAACUGCCACAUCGAGUGGACGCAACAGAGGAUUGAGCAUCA | 0.161 |

Study 2 — technique: protein-binding microarray; molecule type: double-stranded DNA, one strand shown; matrix: in vitro; tested at: 250 nM; notes: 60-bp whole probe; together with: salmon DNA 0.4 mg/ml; relative to: random background probes; reading: higher = stronger binding; shared flanks, not repeated: GCCTAGCAC … GTCTTGATTCGCTTGACGCTGCTG
Target: Interferon regulatory factor 7, full length, phosphomimetic (IRF7, Homo sapiens, UniProt Q92985, residues 1-503, S101K/S471D/S472D/S475D/S476D/S477D/S483D/S484D/S487D)
Target sequence (chain): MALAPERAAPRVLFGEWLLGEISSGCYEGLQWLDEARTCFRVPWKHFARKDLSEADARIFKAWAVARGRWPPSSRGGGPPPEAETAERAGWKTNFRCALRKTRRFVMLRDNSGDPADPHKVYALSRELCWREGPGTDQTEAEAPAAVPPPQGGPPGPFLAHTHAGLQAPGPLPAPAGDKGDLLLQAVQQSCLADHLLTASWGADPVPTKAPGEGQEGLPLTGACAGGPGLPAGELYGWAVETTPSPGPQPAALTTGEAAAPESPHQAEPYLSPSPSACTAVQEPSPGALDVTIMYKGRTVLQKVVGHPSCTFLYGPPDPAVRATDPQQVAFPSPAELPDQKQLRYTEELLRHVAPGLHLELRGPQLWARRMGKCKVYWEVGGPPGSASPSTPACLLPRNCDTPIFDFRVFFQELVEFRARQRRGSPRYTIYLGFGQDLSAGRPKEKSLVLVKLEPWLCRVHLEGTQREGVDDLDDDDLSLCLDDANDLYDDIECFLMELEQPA
| Sequence | log fluorescence |
| --- | --- |
| GACGGTTTCCTACCGCTGACGTGCTAG | 1.22 z-score |
| TCAAGAAAGTGAAATACCACTGTGCTA | -0.465 z-score |
| CCCAATAATCTTTTCACTTTGTGCTAG | 1.18 z-score |
| TCACATTACAGCTATTTTACTGTGCTA | 1.01 z-score |
| TTAGGTTTTGACTTTCGGTTAGTGCTA | 2.84 z-score |
| TTAGGACTGGGGTTTCAGTTAGTGCTA | -0.000872 z-score |
| TCAGCTGTTTTTCTCACACTGTGCTAG | 0.338 z-score |
| TTTGATTTCGGGACTGGATTAGTGCTA | 0.954 z-score |
| GACGGTTTCGACGTTCGGGACGTGCTA | 3.13 z-score |
| TCATTTTTTACTTCGGGACTGTGCTAG | 0.907 z-score |
| AGCAGAAAGTGAAATACCCTCGTGCTA | -0.555 z-score |
| GGATCTTGCAGATGTCGCTGGGTGCTA | -0.471 z-score |
| GACGGACTGGGAGTGGGGACGTGCTAG | -0.57 z-score |
| TTAGGTATCGGTCTCGGATAGTGCTAG | 1.35 z-score |
| TTAGAACTGGGGTTTCCATTAGTGCTA | 1.03 z-score |
| CACCCCGCCCCTCCTTGGCCGTGCTAG | -0.321 z-score |
| TTACGACTGCTACTGCTTTAGTGCTAG | -0.474 z-score |
| TTAGGTCTCGGTTTGGGTTAGTGCTAG | 6.9 z-score |
| TTAGGTCTCCTACTTCTTTAGTGCTAG | 0.28 z-score |

Study 3 — technique: DHFR PCA, deep sequencing; matrix: yeast; together with: (+)-ABA 2500 µM; relative to: wild-type fitted maximum; reading: higher = stronger binding
Target: ABI1, truncated, D143A, DHFR fusion (Arabidopsis thaliana)
Notes: methotrexate growth selection, single substitutions
Starting sequence: PYL1, truncated, DHFR fusion (Arabidopsis thaliana); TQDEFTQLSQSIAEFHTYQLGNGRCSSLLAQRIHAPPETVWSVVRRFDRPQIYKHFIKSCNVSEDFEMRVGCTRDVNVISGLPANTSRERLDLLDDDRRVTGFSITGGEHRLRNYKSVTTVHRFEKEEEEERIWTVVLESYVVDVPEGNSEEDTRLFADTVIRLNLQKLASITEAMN; partner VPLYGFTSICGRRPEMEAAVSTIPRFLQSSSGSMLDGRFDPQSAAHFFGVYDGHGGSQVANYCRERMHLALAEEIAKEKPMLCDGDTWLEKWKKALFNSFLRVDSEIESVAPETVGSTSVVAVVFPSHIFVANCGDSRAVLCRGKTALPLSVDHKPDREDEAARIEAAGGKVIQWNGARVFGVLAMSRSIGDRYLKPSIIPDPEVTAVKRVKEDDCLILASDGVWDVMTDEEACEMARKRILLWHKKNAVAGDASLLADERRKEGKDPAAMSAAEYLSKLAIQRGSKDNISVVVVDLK
| Change | relative binding score [%] |
| --- | --- |
| I33C | 88.3 |
| T120N | 59.9 |
| R111S | 80.1 |
| L29C | 93.3 |
| K54C | 25 |
| D95S | 91.1 |
| A30R | 98.3 |
| T6Y | 94 |
| T160I | 87.4 |
| L164M | 95.7 |
| R111N | 80.7 |
| I172R | 88.8 |
| T119D | 25.8 |
| Q167C | 91.9 |
| A13C | 95.5 |
| C25T | 98.7 |
| R163K | 99.9 |

Study 4 — target: CCNE2, cyclin fold, Cln2 fusion (human); technique: yeast growth competition, sequencing; matrix: yeast; notes: weak parent motif; relative to: not given; reading: higher = stronger binding
Starting sequence: REV3L docking peptide (human); PPVIIKYIIINRF
| Change | normalised enrichment score |
| --- | --- |
| PPVIIKYIIANRF [I10A] | 0.971 |
| PPVIIKYAIINRF [I8A] | 0.349 |
| PPVIIKYIAINRF [I9A] | 0.72 |
| PPVIAKYIIINRF [I5A] | 0.574 |
| PPVIIKYIIINAF [R12A] | 0.269 |
| PAVIIKYIIINRF [P2A] | 0.599 |
| PPVIIKYIIINRA [F13A] | 0.563 |

A few entries again (study 2):
| Sequence | log fluorescence |
| --- | --- |
| GACGGTTTCGACGTTCGGGACGTGCTA | 3.13 z-score |
| TCATTTTTTACTTCGGGACTGTGCTAG | 0.907 z-score |
| AGCAGAAAGTGAAATACCCTCGTGCTA | -0.555 z-score |
| GGATCTTGCAGATGTCGCTGGGTGCTA | -0.471 z-score |
| GACGGACTGGGAGTGGGGACGTGCTAG | -0.57 z-score |
| TTAGGTATCGGTCTCGGATAGTGCTAG | 1.35 z-score |
